Assay results collected from several papers.
Compare with care: the assays were run in different laboratories. Numbers after ± are the reported error.

SMILES = N#C[C@@]1(c2ccc3c(N)ncnn23)O[C@H](CO)[C@@H](O)[C@H]1O; test = plasma protein binding; test system = human plasma; conditions = 1 µM, time not given; recovery = 95.8%
SMILES = CC(=O)N1CCN(c2ccc(OCC3COC(Cn4ccnc4)(c4ccc(Cl)cc4Cl)O3)cc2)CC1 (stereo not shown); test = equilibrium dialysis; test system = mouse plasma; conditions = 1 µM, 6 h; recovery = 93.2%
SMILES = CN(Cc1cnc2nc(N)nc(N)c2n1)c1ccc(C(=O)N[C@@H](CCC(=O)O)C(=O)O)cc1; test = lipid PAMPA; test system = artificial lipid membrane; conditions = 10 µM, 16 h; recovery = < 101%
SMILES = CNC(=C[N+](=O)[O-])NCCSCc1ccc(CN(C)C)o1; test system = Caco-2 monolayer; conditions = 10 µM, 2 h; recovery = 91.3%
SMILES = O=C1CC[C@H](N2Cc3cc(N4CCN(CC5CCN(c6ccc([C@@H]7c8ccc(O)cc8CC[C@@H]7c7ccccc7)cc6)CC5)CC4)ccc3C2=O)C(=O)N1; test = rapid equilibrium dialysis; test system = SD rat plasma; conditions = 2.5 µM, 6 h; recovery = 102%
SMILES = C=CC(=O)Nc1cc(Nc2nccc(-c3cn(C)c4ccccc34)n2)c(OC)cc1N(C)CCN(C)C; test = storage stability; test system = human plasma; conditions = 24 h, on ice, high QC level; recovery = 82.8%
SMILES = C=CC(=O)Nc1cc(Nc2nccc(-c3cn(C)c4ccccc34)n2)c(OCC(F)(F)F)nc1N(C)CCN(C)C; test = rapid equilibrium dialysis; test system = human plasma; conditions = 0.2 µg/mL, time not given; recovery = 78.5%
SMILES = CC(=O)N[C@H]1[C@H]([C@H](O)[C@H](O)CO)OC(C(=O)O)=C[C@@H]1N=C(N)N; test = HPLC; test system = HBSS; conditions = 10 µg/mL, 36 h, room temperature, short-term stability; recovery = 101%
SMILES = CC(C)(C)c1ccc(O)c(CN(Cc2cc(C(C)(C)C)ccc2O)C2CCC(NC(N)=O)CC2)c1 (stereo not shown); test system = mouse brain; conditions = 2000 ng/g, 24 h, 25 °C, short-term storage; recovery = 99.78 ± 0.45%
SMILES = CC[C@@H]1C(=O)N(C)c2cnc(Nc3ccc(C(=O)NC4CCN(C)CC4)cc3OC)nc2N1C1CCCC1; test system = Caco-2 monolayer; conditions = 10 µM, 2 h; recovery = 58.2%

A few entries again:
SMILES = CC(=O)N1CCN(c2ccc(OCC3COC(Cn4ccnc4)(c4ccc(Cl)cc4Cl)O3)cc2)CC1 (stereo not shown); test = equilibrium dialysis; test system = mouse plasma; conditions = 1 µM, 6 h; recovery = 93.2%
SMILES = CN(Cc1cnc2nc(N)nc(N)c2n1)c1ccc(C(=O)N[C@@H](CCC(=O)O)C(=O)O)cc1; test = lipid PAMPA; test system = artificial lipid membrane; conditions = 10 µM, 16 h; recovery = < 101%
